Measured values gathered from unrelated publications.
Compare with care: the assays were run in different laboratories. ± gives the spread as reported.
ampC: Beta-lactamase (ampC, Escherichia coli K-12, UniProt P00811)
Chain of UniProt P00811 (whole entry, looked up): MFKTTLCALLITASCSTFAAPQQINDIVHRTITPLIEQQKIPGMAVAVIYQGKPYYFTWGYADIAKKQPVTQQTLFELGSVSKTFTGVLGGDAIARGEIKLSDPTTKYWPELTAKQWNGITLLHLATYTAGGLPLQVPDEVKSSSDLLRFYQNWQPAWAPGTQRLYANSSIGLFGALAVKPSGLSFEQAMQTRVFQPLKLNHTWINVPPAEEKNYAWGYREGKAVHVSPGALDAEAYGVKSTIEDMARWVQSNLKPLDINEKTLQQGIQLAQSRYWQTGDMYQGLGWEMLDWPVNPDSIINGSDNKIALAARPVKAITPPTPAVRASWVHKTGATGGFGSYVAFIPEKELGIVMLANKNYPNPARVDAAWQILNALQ
BLK SH2 domain: Tyrosine-protein kinase Blk, SH2 domain (BLK, Homo sapiens, UniProt P51451)
Chain of UniProt P51451 (whole entry, looked up): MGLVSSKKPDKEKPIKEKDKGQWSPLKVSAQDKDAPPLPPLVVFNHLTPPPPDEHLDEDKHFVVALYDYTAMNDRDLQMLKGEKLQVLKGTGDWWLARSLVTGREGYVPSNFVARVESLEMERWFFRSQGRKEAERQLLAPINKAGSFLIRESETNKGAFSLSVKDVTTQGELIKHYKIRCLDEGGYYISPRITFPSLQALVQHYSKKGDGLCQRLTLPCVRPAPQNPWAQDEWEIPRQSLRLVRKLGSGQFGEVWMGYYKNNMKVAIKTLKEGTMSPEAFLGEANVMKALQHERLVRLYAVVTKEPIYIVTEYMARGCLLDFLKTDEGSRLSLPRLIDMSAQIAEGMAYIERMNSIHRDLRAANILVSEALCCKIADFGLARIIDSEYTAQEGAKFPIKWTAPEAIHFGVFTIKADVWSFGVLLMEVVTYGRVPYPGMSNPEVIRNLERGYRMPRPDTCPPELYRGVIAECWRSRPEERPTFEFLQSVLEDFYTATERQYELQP
HLA class I histocompatibility antigen, A alpha chain allele A*24:02: HLA class I histocompatibility antigen, A alpha chain, allele A*24:02 (Homo sapiens, UniProt P04439)
HLA class I histocompatibility antigen, A alpha chain allele A*02:01: HLA class I histocompatibility antigen, A alpha chain, allele A*02:01 (Homo sapiens, UniProt P04439)
Chain of UniProt P03023 (whole entry, unmodified, looked up): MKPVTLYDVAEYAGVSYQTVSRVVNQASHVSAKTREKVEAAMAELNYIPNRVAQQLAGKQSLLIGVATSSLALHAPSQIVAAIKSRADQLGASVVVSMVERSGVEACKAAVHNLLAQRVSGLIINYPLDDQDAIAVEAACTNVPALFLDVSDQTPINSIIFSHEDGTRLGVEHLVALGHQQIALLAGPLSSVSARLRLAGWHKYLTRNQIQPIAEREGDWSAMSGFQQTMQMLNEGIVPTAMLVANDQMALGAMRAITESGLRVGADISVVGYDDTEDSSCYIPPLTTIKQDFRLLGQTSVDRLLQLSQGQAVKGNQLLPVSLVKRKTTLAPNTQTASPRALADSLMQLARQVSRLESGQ
Chain of UniProt Q96SW2 (whole entry, looked up): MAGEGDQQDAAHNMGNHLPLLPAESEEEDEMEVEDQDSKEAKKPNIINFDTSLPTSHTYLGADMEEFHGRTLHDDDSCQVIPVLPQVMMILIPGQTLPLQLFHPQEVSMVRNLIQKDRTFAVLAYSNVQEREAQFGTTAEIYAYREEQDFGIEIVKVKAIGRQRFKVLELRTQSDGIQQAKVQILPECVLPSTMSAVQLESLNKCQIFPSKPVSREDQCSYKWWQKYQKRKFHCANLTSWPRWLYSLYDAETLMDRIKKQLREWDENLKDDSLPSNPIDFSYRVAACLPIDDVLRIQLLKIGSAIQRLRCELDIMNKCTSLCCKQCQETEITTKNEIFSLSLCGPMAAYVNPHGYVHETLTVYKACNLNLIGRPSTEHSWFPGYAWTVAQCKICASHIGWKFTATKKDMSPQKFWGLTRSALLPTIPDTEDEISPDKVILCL
Chain of UniProt P25100 (whole entry, looked up): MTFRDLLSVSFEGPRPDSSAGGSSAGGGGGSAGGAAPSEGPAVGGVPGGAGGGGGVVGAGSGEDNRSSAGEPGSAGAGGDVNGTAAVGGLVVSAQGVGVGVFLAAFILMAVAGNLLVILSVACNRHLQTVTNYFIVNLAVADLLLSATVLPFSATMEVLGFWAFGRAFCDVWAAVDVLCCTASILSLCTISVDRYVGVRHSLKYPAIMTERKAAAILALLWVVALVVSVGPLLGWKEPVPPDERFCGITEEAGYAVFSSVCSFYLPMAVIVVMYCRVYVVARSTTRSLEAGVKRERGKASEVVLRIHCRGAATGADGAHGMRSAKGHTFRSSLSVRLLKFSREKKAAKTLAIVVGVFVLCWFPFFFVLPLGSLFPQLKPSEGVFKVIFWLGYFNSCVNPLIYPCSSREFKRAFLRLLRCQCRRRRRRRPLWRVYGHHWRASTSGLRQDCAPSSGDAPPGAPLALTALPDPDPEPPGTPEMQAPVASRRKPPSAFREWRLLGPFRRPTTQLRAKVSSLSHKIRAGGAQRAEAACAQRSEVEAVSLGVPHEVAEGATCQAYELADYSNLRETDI
Chain of UniProt Q13422 (whole entry, looked up): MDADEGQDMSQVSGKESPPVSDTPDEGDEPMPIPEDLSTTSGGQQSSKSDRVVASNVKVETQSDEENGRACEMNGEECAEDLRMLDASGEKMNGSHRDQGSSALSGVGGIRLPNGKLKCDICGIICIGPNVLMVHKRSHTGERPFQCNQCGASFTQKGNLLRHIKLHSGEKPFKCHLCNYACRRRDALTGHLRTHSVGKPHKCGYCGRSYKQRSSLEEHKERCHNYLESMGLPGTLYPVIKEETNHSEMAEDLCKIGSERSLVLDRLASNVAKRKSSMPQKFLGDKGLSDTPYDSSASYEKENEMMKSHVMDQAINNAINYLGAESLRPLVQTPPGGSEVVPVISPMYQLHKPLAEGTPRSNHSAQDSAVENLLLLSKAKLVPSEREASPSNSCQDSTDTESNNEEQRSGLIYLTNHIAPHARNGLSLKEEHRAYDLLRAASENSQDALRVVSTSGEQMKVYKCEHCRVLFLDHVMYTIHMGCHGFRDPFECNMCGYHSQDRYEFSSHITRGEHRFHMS
Chain of UniProt O00425 (whole entry, looked up): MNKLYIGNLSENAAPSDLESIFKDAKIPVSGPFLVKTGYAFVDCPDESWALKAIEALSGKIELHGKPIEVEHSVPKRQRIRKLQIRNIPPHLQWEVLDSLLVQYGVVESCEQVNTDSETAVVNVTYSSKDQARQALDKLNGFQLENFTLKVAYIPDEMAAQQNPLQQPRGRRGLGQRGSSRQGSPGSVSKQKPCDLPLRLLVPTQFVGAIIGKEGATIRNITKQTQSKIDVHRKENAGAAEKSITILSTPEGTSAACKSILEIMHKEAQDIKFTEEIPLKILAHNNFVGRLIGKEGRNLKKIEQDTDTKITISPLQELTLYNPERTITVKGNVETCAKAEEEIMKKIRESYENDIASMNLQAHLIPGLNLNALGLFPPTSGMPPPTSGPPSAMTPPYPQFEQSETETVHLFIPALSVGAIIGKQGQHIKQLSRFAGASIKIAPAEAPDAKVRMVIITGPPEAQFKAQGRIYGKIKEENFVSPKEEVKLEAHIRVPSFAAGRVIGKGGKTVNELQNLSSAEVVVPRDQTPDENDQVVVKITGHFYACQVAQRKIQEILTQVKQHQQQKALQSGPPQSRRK

COC(=O)c1cc(CNS(=O)(=O)c2cc(Cl)cc(Cl)c2O)ccc1Cl — Ki (ampC): 66.9 µM
CC[C@H](C)[C@H](NC(=O)[C@H](CC(=O)O)NC(=O)[C@H](C)NC(=O)[C@H](Cc1ccc(O)cc1)NC(=O)[C@H](CCCCN)NC(=O)c1ccc2c(c1)C(=O)OC21c2ccc(N(C)C)cc2Oc2cc(N(C)C)ccc21)C(=O)N[C@@H](CCC(=O)O)C(=O)N[C@@H](CO)C(=O)N[C@@H](CO)C(=O)N[C@@H](CC(N)=O)C(=O)N[C@@H](Cc1ccc(OP(=O)(O)O)cc1)C(=O)N[C@@H](CCSC)C(=O)N[C@@H](C)C(=O)N1CCC[C@H]1C(=O)N[C@@H](Cc1ccc(O)cc1)C(=O)N[C@@H](CC(=O)O)C(=O)N[C@@H](CC(N)=O)C(=O)N[C@@H](Cc1ccc(O)cc1)C(=O)N[C@@H](CC(=O)O)C(=O)O — Kd (BLK SH2 domain; binding): 1.01 µM
COc1cc(Nc2ncc(F)c(Nc3ccc4c(n3)NC(=O)C(C)(C)O4)n2)cc(OC)c1OC — IC50 (ADRA1D (Homo sapiens, UniProt P25100)): > 10 µM
OC[C@H]1O[C@@H](OCCc2ccccc2)[C@H](O)[C@@H](O)[C@H]1O — EC50 (lacI (Escherichia coli, UniProt P03023, N125A); operator DNA release, nitrocellulose filter binding; together with: O1 operator DNA): 390 ± 15 µM
CC(C)C[C@H](NC(=O)[C@@H](N)CCCCN)C(=O)N[C@@H](Cc1ccccc1)C(=O)N[C@@H](CO)C(=O)N[C@@H](CCCNC(=N)N)C(=O)N1CCC[C@H]1C(=O)N[C@@H](CC(C)C)C(=O)N[C@H](C(=O)N[C@@H](Cc1ccccc1)C(=O)O)[C@@H](C)O — IC50 (HLA class I histocompatibility antigen, A alpha chain allele A*24:02; binding): 0.134 µM
O=S(=O)(NC(Cc1ccccc1)c1cccs1)c1cccc(Cl)c1O (stereo not drawn) — Ki (ampC): 105 µM
CC(C)C[C@H](NC(=O)[C@@H](N)Cc1c[nH]cn1)C(=O)N[C@@H](Cc1ccccc1)C(=O)N1CCC[C@H]1C(=O)N[C@@H](CCCNC(=N)N)C(=O)N[C@H](C(=O)N[C@@H](Cc1c[nH]cn1)C(=O)N[C@@H](Cc1ccc(O)cc1)C(=O)N[C@@H](Cc1ccccc1)C(=O)O)[C@@H](C)O — IC50 (HLA class I histocompatibility antigen, A alpha chain allele A*02:01; binding): 0.828 µM
COc1cccc(C(=O)Nc2ccc3c(c2)CN(C2CCC(=O)NC2=O)C3=O)c1 (stereo not drawn) — DC50 (Cereblon/Ikaros (Homo sapiens, UniProt Q13422+Q96SW2); degrader, live-cell HiBiT kinetic; Jurkat Ikaros-HiBiT LgBiT): > 10 µM
Cn1ccnc1Sc1ccc(NS(=O)(=O)c2cccc(Cl)c2O)cc1 — Ki (ampC): 189 µM
CC(C)C[C@H](NC(=O)[C@H](CCC(=O)O)NC(=O)[C@H](CC(C)C)NC(=O)[C@@H]1CCCN1C(=O)[C@H](CCCCN)NC(=O)[C@H](CO)NC(=O)[C@H](Cc1ccc(O)cc1)NC(=O)[C@@H](NC(=O)[C@@H](N)Cc1ccc(O)cc1)[C@@H](C)O)C(=O)O — IC50 (HLA class I histocompatibility antigen, A alpha chain allele A*24:02; binding): 8.39 µM
C[C@H]1O[C@@H](Oc2ccccc2[N+](=O)[O-])[C@H](O)[C@@H](O)[C@H]1O — EC50 (lacI (Escherichia coli, UniProt P03023); operator DNA binding, nitrocellulose filter binding; together with: O1 operator DNA): 110 ± 11 µM
CSCC[C@H](NC(=O)[C@@H](N)CCCNC(=N)N)C(=O)N[C@@H](Cc1ccc(O)cc1)C(=O)N[C@@H](CC(N)=O)C(=O)N1CCC[C@H]1C(=O)N[C@H](C(=O)N[C@@H](CC(C)C)C(=O)N[C@@H](CCCNC(=N)N)C(=O)N[C@@H](Cc1ccccc1)C(=O)O)C(C)C — IC50 (HLA class I histocompatibility antigen, A alpha chain allele A*02:01; binding): 9.58 µM
C[C@H]1CN(c2n[nH]c3nc(N[C@H]4CC[C@H](NS(=O)(=O)CCC(F)(F)F)CC4)ncc23)CCO1 — IC50 (IGF2BP3 (Homo sapiens, UniProt O00425); biochemical): ≥ 20 µM
CC[C@H](C)[C@H](NC(=O)[C@@H](N)CCCCN)C(=O)N[C@@H](Cc1ccccc1)C(=O)N1CCC[C@H]1C(=O)N[C@@H](CCCCN)C(=O)N1CCC[C@H]1C(=O)N[C@@H](CC(C)C)C(=O)N[C@@H](Cc1ccc(O)cc1)C(=O)N[C@@H](CCSC)C(=O)O — IC50 (HLA class I histocompatibility antigen, A alpha chain allele A*24:02; binding): 27.7 µM
CC[C@H](C)[C@H](NC(=O)CNC(=O)[C@H](CC(=O)O)NC(=O)[C@H](Cc1ccc(OP(=O)(O)O)cc1)NC(=O)[C@@H]1CCCN1C(=O)[C@H](CCCCN)NC(=O)[C@H](CO)NC(=O)CNC(=O)[C@H](Cc1ccccc1)NC(=O)[C@@H](NC(=O)[C@H](CCSC)NC(=O)[C@H](CC(C)C)NC(=O)[C@H](CCC(=O)O)NC(=O)c1ccc2c(c1)C(=O)OC21c2ccc(N(C)C)cc2Oc2cc(N(C)C)ccc21)[C@@H](C)O)C(=O)N1CCC[C@H]1C(=O)N[C@@H](C)C(=O)N[C@@H](CO)C(=O)N[C@@H](CCC(=O)O)C(=O)N[C@@H](CC(=O)O)C(=O)O — Kd (BLK SH2 domain; binding): 1.18 µM
